Published values from different studies.
A part holds a random share of what one study measured.

Study 1
Target: Replicase polyprotein 1ab, nsp13 helicase (rep, Severe acute respiratory syndrome coronavirus 2, UniProt P0DTD1)
Mode: inhibitor
Concentration: 20 µM
SMILES | inhibition [%]
C=C1CC[C@@]2(O)[C@H]3Cc4ccc(O)c5c4[C@@]2(CCN3CC2CC2)[C@H]1O5 | -0.03
Cc1ccnc(NS(=O)(=O)c2ccc(N)cc2)n1 | 3.9
CCCNC(C)(C)COC(=O)c1ccccc1 | 4.81
CN(C(=O)Cc1ccccc1)[C@H](CN1CCCC1)c1ccccc1 | 7.37
CN[C@H](CNC(=O)N1CCC[C@@H]([C@@H](OCCNC(=O)OC)c2cccc(Cl)c2)C1)C[C@H]1CCCOC1 | 1.37
CCOC(=O)N[C@@H]1CC[C@@H]2[C@@H](C1)C[C@H]1C(=O)O[C@H](C)[C@H]1[C@H]2/C=C/c1ccc(-c2cccc(F)c2)cn1 | -26
CCn1c(-c2nonc2N)nc2cncc(CNC3CCNCC3)c21 | 6.31
COCCOc1ccc(N2CCN(CCn3ncc4c3nc(N)n3nc(-c5ccco5)nc43)CC2)cc1 | 1.51
C[C@@H](O)[C@H]1C(=O)N2C(C(=O)O)=C(S[C@@H]3CN[C@H](C(=O)N(C)C)C3)[C@H](C)[C@H]12 | 4.56
CC(C)c1ccc(C(=O)c2cccs2)c(SCCCCCCCCN(C)C)n1 | 8.14
O=S(=O)(N[C@H](CO)C(C(F)(F)F)C(F)(F)F)c1ccc(Cl)s1 | 3.71
CC(=O)N(C)c1cccc(-c2ccnc3c(C(=O)c4cccs4)cnn23)c1 | -1.37
COc1cccc(OC)c1-c1ccc(C[C@H](NC(=O)c2c(Cl)cccc2Cl)C(=O)O)cc1 | 0.5
CC(=O)S[C@@H]1CC2=CC(=O)CC[C@]2(C)[C@H]2CC[C@@]3(C)[C@@H](CC[C@@]34CCC(=O)O4)[C@H]12 | 3.3
CC[N+](CC)(CCCNC1=CC(=O)C(NCCC[N+](CC)(CC)Cc2ccccc2)=CC1=O)Cc1ccccc1 | 12.5
Cc1cccc(/C=N/Nc2cc(N3CCOCC3)n3nc(-c4ccncc4)cc3n2)c1 | 8.69
NC[C@@H]1O[C@H](C23CC4CC(CC(C4)C2)C3)Cc2c1ccc(O)c2O | -3.68
CC[N+]1(C)CCCC(OC(=O)C(O)(c2ccccc2)c2ccccc2)C1 (centres unmarked) | 4.51
O=C(CCn1cnc2c(=O)[nH]cnc21)Nc1ccc(C(=O)O)cc1 | -0.17
O=C(/C=C/c1ccccc1)NC(NC(=S)Nc1cccc2cccnc12)C(Cl)(Cl)Cl (centres unmarked) | -5.09
CC(CCc1ccc(O)cc1)NCC(O)c1ccc(O)cc1 (centres unmarked) | 6.5
C[C@@H](O)[C@H]1C(=O)N2C(C(=O)O)=C(S[C@@H]3CN[C@H](C(=O)Nc4cccc(C(=O)O)c4)C3)[C@H](C)[C@H]12 | 57
O=C(O)/C=C/CO | 6.96
CC(C)[C@H]1[C@@H]2CC[C@@H](C2)[C@@H]1N | 1.35
CN[C@H](C(=O)N[C@H](C(=O)N(C)[C@H](/C=C(\C)C(=O)O)C(C)C)C(C)(C)C)C(C)(C)c1ccccc1 | 6.77

Study 2
Target: RNA binding protein fox-1 homolog 2, RRM domain, GST-SBP tag (RBFOX2, Homo sapiens, UniProt O43251-10, residues 100-194)
Method: RNA Bind-n-Seq
Molecule type: RNA
Sample: in vitro
Concentration: 365 nM
Notes: natural RNA segment, single round, ends assumed
Baseline: no-protein control
Reading: higher = stronger binding
Construct (chain): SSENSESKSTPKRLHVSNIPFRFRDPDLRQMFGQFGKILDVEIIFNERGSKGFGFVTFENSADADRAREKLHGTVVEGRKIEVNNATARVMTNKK
Sequence | RBNS enrichment (R)
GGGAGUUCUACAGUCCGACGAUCUGAUGCCUUUGACAGUGAUGAAAACGAUUUCACCACAUCUGAAUCCAGAGAAACCGGCUUUUUUUCUUAUUGCGAGCAUGUUAAAACGUUGGGAACAUGUGGGGAAUUGUUGGAAUUCUCGGGUGCCAA | 2.35
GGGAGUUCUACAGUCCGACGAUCCACACUCUAGUUGUUUUCCAUGAAAGGUAUACAAAUGAAGAAUUUUCUAGCAAAACAUGUUUUUAACCAUCAGUGCUCAAUUGCAUUUUCUUCCUUUCGCAGCCAGUCAGUGGAAUUCUCGGGUGCCAA | 0.456
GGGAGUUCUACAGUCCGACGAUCUCCCAAGUCCGUGAUUUCAGUUUUUCUUUUAUGGUUUCAUUGUUUGUAGUUGCCUUUGGGUUUUUGUCUUUGUUUUUCUGUCUUUUGUUAAAUCUGCUCUUAAAGUUCACUGGAAUUCUCGGGUGCCAA | 16.3
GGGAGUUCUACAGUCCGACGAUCCUAAUAUUCACAUGUUCUAAUACUUUGUUUAUUGUAAAACAGCUAAAUUUGGAGAUACGUAAAGCCUUGUUUUCUCUGUGUGGUUCAGCUACUUUCCAUUUGGUAUUACAUGGAAUUCUCGGGUGCCAA | 0.825
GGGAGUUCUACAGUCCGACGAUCCCAACUUGCUUAAAGAGGAAUCACUUAAAAGGUAGGCAUAUCUAAGAUGCUCAUAGAAGAGGAAGAAUGGGACAUGGCCCCAUGCUUAUUUUUGUUUACAACGUAACAUGUGGAAUUCUCGGGUGCCAA | 0.483
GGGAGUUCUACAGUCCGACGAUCAGUUGCUGUUUGUUUGACAAAGAAACCCAAGUGGGGGCAGAGGGCAGAGGCUGGAGGCAGGGCCUUGCCCAGAGAUGCCUCCACCGCUGCCUAAGUGGCUGCUGACUGAUUGGAAUUCUCGGGUGCCAA | 0.284
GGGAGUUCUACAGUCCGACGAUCCACAGGGACCCAGUGCAGAAUCUCCAGCCUUAAUUCUUGCUUCAGGACCCAAACCAGCGCCUCACUCUAGGGUAGCCCAGGGCGCAGGUGCCAGGUCUGCCUAGCGUUUAUGGAAUUCUCGGGUGCCAA | 0.303
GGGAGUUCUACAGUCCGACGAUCGUGGGUCCUACAGGUGCUUCCAUGCUCUGGUUAGACUGUCCUGUCUGAGGACACAGCCAGUUUCUUCAGCACCUCCACAAACUGCACCCCGUCUCUGUCCAUGCACCUCGUGGAAUUCUCGGGUGCCAA | 0.561

Study 3
Target: Sal-like protein 4, full length isoform B (SALL4, Homo sapiens, UniProt Q9UJQ4-2, residues 1-616)
Method: universal PBM
Molecule type: double-stranded DNA, one strand shown
Sample: in vitro
Concentration: not given
Notes: 8-mer, flanks averaged, mean of replicates
Reading: higher = stronger binding
Sequence | E-score
GGTATGAA | 0.281
GTCTGGCA | -0.184
CAAATACC | 0.0526
ACTATTAG | 0.0798
AGTAGGGA | -0.0198
CAGCGGAA | -0.249
CATCCAAG | -0.157
GGCCAGAC | -0.313

Study 4
Cell line: HEK-293T
Read-out: pseudovirus infection
Organism: VSV pseudotyped with SARS-CoV-2 spike
Concentration: 10 µM
Time: 16 h
Baseline: vehicle-treated
Structure (SMILES) | GFP-positive cells [%]
CC(=O)O[C@H]1CC[C@@]2(C)C(=CC[C@@H]3[C@@H]2CC[C@]2(C)C(c4cccnc4)=CC[C@@H]32)C1 | 74.8
C[C@]12C=CC(=O)N[C@@H]1CC[C@@H]1[C@@H]2CC[C@]2(C)[C@@H](C(=O)Nc3cc(C(F)(F)F)ccc3C(F)(F)F)CC[C@@H]12 | 97.8
CCCNS(=O)(=O)Nc1ncnc(OCCOc2ncc(Br)cn2)c1-c1ccc(Br)cc1 | 85
CCc1nn(CCCN2CCN(c3cccc(Cl)c3)CC2)c(=O)n1CCOc1ccccc1 | 101

Study 5
Target: Replicase polyprotein 1ab, main protease (rep, Severe acute respiratory syndrome coronavirus 2, UniProt P0DTD1)
Read-out: enzyme activity
Mode: inhibitor
Concentration: 20 µM
Notes: hit confirmation
Structure (SMILES) | inhibition [%]
Cc1c(C)c(NCC(=O)N(C)C2CCN(Cc3ccc(C(N)=O)cc3)CC2)c(C)c(C)c1N | -0.5
COC1=C2C[C@@H](C)C[C@H](OC)[C@H](O)[C@@H](C)/C=C(\C)[C@H](OC(N)=O)[C@@H](OC)/C=C/C=C(\C)C(=O)NC(=CC1=O)C2=O | 13.8
C=C1/C(=C\C=C2/CCC[C@]3(C)[C@@H]([C@H](C)CCCC(O)(C(F)(F)F)C(F)(F)F)CC[C@@H]23)C[C@@H](O)C[C@@H]1O | 4.8

Study 6
Target: Histone acetyltransferase KAT6A, both winged helices, GST fusion (KAT6A, Homo sapiens, UniProt Q92794, residues 1-181)
Method: protein binding microarray
Molecule type: double-stranded DNA, one strand shown
Sample: in vitro
Concentration: not given
Notes: 8-mer, flanks averaged, mean of 2 arrays, mostly near background
Baseline: not given
Reading: higher = stronger binding
Construct (chain): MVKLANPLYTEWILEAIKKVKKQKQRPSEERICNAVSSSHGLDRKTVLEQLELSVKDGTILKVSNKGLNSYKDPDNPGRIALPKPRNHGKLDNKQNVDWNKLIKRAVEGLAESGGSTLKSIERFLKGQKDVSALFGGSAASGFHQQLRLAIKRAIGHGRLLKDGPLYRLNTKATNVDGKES
Sequence | E-score
ACCGATTA | 0.00334
ACGTAAGT | -0.0546
CTCCCTAC | -0.0844
ACGGGAGC | 0.138
CGGCGTAG | 0.193
CTTCCCCC | -0.182
CCGGTTGA | 0.109
GTTGCCCA | -0.0311

Excerpt of the above (study 3):
Sequence | E-score
GGTATGAA | 0.281
GTCTGGCA | -0.184
CAAATACC | 0.0526
ACTATTAG | 0.0798
AGTAGGGA | -0.0198
CAGCGGAA | -0.249
CATCCAAG | -0.157
GGCCAGAC | -0.313
